Measured values gathered from unrelated publications.
Every numbered part comes from another study and shows a few of its results, in no order.
Sequence of UniProt Q06418 (whole entry, looked up): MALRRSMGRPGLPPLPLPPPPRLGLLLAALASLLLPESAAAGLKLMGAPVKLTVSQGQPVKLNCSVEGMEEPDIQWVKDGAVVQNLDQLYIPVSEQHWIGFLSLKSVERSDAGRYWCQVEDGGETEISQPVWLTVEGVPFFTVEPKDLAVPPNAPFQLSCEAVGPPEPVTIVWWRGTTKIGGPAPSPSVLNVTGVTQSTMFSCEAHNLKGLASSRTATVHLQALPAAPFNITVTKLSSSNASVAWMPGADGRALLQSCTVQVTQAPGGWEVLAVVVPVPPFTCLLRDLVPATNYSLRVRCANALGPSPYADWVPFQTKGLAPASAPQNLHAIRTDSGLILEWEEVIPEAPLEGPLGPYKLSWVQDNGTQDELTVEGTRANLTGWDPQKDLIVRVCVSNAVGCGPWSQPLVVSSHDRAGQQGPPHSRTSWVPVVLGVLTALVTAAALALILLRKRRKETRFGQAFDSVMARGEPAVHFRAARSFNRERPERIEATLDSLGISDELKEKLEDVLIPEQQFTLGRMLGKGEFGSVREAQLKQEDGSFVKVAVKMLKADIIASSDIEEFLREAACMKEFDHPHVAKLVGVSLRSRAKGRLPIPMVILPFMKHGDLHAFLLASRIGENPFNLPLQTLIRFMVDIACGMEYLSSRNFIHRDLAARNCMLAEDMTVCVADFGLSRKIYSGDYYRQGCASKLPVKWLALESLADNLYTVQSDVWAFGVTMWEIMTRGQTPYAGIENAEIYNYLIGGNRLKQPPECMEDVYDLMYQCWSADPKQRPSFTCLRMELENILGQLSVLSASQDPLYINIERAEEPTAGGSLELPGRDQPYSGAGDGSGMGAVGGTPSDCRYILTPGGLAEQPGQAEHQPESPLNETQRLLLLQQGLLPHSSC
Sequence of UniProt Q14012 (whole entry, looked up): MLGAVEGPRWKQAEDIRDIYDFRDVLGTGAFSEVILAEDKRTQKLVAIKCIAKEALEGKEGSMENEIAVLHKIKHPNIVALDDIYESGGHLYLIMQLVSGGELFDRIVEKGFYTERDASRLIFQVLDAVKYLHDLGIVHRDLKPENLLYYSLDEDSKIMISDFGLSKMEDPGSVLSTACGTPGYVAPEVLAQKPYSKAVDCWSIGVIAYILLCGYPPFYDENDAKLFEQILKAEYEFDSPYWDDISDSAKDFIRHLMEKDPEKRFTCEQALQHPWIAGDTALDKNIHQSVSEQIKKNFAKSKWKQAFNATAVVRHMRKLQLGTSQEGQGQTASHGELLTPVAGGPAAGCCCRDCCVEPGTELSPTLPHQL
Sequence of UniProt Q9ZSY8 (whole entry, looked up): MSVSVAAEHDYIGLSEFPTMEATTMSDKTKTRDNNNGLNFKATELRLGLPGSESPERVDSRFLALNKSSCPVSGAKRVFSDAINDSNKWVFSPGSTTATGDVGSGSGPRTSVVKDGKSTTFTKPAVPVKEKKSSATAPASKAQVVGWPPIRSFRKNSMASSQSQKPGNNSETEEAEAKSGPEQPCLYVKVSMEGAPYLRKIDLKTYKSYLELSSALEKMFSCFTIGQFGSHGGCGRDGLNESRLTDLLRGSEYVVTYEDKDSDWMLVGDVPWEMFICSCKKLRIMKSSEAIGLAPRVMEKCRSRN
Sequence of UniProt Q05513 (whole entry, looked up): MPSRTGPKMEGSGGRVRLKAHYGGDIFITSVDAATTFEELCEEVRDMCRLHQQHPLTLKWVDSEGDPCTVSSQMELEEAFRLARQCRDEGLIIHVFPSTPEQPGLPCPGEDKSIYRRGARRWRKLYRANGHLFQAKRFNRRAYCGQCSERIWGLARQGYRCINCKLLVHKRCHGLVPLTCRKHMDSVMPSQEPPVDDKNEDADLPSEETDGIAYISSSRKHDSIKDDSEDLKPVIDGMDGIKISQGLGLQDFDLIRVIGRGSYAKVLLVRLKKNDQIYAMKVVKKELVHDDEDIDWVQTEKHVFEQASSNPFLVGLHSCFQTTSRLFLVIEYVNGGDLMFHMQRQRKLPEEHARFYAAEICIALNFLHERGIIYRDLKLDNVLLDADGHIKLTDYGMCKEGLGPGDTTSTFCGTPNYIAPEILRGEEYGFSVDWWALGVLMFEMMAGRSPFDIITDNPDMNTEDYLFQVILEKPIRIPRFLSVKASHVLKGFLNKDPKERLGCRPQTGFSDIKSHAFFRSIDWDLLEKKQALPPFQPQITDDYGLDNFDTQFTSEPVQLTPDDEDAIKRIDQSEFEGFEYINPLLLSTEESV
Sequence of UniProt Q9UEE5 (whole entry, looked up): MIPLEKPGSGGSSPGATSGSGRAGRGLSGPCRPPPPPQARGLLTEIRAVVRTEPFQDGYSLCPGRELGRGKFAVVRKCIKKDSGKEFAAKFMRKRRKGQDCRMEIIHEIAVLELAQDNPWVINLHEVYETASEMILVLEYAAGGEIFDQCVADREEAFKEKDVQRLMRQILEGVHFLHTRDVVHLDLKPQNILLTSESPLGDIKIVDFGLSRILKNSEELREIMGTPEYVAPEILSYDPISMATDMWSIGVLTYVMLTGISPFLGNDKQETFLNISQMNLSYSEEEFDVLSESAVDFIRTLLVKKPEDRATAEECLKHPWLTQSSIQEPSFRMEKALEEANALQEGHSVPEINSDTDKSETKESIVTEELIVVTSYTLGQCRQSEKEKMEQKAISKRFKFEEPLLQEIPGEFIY
Sequence of UniProt P49760 (whole entry, looked up): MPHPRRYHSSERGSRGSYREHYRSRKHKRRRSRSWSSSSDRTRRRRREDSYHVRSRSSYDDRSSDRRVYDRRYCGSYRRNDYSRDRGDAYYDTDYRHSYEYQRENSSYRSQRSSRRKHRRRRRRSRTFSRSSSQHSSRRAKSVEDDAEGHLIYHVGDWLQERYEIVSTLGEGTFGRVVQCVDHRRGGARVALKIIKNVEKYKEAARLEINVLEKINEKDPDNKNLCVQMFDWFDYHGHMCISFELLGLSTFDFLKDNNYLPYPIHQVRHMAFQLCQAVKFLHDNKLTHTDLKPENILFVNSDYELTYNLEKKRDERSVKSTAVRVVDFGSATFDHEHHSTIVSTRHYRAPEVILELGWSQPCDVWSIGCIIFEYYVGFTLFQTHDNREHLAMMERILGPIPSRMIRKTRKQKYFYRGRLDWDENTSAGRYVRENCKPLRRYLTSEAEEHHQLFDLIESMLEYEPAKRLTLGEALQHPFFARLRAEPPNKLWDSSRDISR
Sequence of UniProt P07947 (whole entry, looked up): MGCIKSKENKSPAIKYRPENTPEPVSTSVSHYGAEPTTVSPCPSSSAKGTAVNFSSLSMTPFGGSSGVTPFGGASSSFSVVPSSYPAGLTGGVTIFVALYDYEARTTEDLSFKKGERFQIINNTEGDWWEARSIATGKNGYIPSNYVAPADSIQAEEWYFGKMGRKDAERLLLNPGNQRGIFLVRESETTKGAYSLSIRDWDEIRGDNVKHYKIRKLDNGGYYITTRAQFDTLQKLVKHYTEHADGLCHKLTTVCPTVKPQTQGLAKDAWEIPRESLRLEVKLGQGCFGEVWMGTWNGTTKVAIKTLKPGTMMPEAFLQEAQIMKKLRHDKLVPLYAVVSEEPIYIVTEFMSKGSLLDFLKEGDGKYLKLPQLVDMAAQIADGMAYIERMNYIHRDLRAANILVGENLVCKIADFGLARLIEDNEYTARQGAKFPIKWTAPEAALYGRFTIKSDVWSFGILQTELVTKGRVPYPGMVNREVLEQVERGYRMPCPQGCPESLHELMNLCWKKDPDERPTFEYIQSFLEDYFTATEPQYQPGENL
Sequence of UniProt P50750 (whole entry, looked up): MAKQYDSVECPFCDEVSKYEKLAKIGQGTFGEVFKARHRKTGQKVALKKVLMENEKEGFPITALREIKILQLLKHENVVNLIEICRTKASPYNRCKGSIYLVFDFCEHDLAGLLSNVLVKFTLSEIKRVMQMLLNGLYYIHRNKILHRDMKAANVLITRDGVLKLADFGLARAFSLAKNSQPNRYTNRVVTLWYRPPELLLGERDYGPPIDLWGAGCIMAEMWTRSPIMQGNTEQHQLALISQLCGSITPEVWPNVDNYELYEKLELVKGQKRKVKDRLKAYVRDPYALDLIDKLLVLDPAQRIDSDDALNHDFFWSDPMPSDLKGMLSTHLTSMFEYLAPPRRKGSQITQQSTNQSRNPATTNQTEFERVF
Sequence of UniProt Q9UBS0 (whole entry, looked up): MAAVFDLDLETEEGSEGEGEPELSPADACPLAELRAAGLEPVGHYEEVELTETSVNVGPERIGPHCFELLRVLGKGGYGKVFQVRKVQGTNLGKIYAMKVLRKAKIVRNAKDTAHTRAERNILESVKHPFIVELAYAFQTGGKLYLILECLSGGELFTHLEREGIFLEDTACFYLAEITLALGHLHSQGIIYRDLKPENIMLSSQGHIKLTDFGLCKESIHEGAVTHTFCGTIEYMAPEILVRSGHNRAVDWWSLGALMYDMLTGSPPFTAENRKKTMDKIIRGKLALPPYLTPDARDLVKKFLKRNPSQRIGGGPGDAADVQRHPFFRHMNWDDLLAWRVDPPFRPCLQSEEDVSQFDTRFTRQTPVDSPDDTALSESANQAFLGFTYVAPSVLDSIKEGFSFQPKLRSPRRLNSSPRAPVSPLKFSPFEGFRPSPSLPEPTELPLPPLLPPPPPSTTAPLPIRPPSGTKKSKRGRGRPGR
Sequence of UniProt Q8LAL2 (whole entry, looked up): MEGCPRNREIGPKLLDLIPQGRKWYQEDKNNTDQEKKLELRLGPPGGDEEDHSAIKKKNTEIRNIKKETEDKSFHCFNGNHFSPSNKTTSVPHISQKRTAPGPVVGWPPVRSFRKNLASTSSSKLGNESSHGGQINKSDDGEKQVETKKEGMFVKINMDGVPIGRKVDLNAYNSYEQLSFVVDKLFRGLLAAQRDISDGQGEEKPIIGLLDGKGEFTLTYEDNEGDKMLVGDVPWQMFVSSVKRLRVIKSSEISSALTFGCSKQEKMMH

Sample 1
Target: Fragile X messenger ribonucleoprotein 1, C-terminal low-complexity region (Fmr1, Mus musculus, UniProt P35922)
Technique: RNA Bind-n-Seq
Molecule type: RNA
Medium: in vitro
Concentration: 200 nM
Setting: whole 134-nt RNA, ends assumed
With: 150 mM KCl
Relative to: input library
Direction: higher = stronger binding
Constant ends, left off below: GGGAGUUCUACAGUCCGACGAUC … UGGAAUUCUCGGGUGUCAAGG
Strand | log2 enrichment
CACAGACAACACGCACCCACACAGACACAGAGGGAAUGGGUUGGGAUGGGGACAGGGUGCACAGCAGGGCGGGGUAGGACCCCAGCCCCU | 1.45
CUGUGCUACACAUCGUAUGUACCGAAUCGGGGUUUUUUUGGGGUUUGGGGAAAAAAAGGGGAAAGUAUUAUGUUACGCCGUUCGGAUCUG | -0.432
CCUGUGCUACACAUCGUAUGUACCGAAUCGGGUUUUUUUGGGAAAAAGGGAAAAAAAGGGAAAGUAUUAUGUUACGCCGUUCGGAUCUGC | -0.894
CACAGACAACACGCACCCACACAGACACAGAGGGAAGAGGUUGGGAUGGGGACAGGGUGCACAGCAGGGCGGGGUAGGACCCCAGCCCCU | 1.2
AAGUCCUGUGCUACACAUCGUAUGUACCGAAUCGGGUUUUUGGGAGGGUUUUUGGGAAAGUAUUAUGUUACGCCGUUCGGAUCUGCACUU | 0.586
UGAAGCGAGAAGCUGCCCUACCCCCAGUGAGCCCCCUGAAGGCGGCUCUCUCUGAGGAGGAGUUAGAGAAGAAAUCCAAGGCUAUCAUUG | -0.761
CCUCAAGUCCUGUGCUACACAUCGUAUGUACCGAAUCGGGUGGGUGGUGGGGAAAGUAUUAUGUUACGCCGUUCGGAUCUGCACUUCCAG | 1.2
CAAGUCCUGUGCUACACAUCGUAUGUACCGAAUCGGAAAGGAAAAAGGAAAAAGGAAAGUAUUAUGUUACGCCGUUCGGAUCUGCACUUC | -0.746

Sample 2
SMILES: Cc1nc(Nc2ncc(C(=O)Nc3c(C)cccc3Cl)s2)cc(N2CCN(CCO)CC2)n1
Observed: enzyme activity
Action: inhibitor
Concentration: 0.5 µM
Relative to: control
target | remaining activity
CLK2 (Homo sapiens, UniProt P49760) | 87.2%
ERBB2 (Homo sapiens, UniProt P04626) | 79.8%
TYRO3 (Homo sapiens, UniProt Q06418) | 87.6%
CLK1 (Homo sapiens, UniProt P49759) | 102%
PAK6 (Homo sapiens, UniProt Q9NQU5) | 136%
MUSK (Homo sapiens, UniProt O15146) | 106%
RPS6KB2 (Homo sapiens, UniProt Q9UBS0) | 101%
EPHA6 (Homo sapiens, UniProt Q9UF33) | 50.5%
Cyclin-dependent kinase 2, with cyclin E (CDK2, Homo sapiens, UniProt P24941) | 95.9%
RPS6KA3 (Homo sapiens, UniProt P51812) | 99.8%
CAMK1 (Homo sapiens, UniProt Q14012) | 106%
BRSK2 (Homo sapiens, UniProt Q8IWQ3) | 99.2%
DYRK1A (Homo sapiens, UniProt Q13627) | 106%
Cyclin-dependent kinase 5, with p35 (CDK5, Homo sapiens, UniProt Q00535) | 101%
IGF1R (Homo sapiens, UniProt P08069) | 97.5%
YES1 (Homo sapiens, UniProt P07947) | 1.94%
PRKCZ (Homo sapiens, UniProt Q05513) | 101%
MAP3K20 (Homo sapiens, UniProt Q9NYL2) | 8.63%

Sample 3
Partner: ARF16 570-670 (Arabidopsis thaliana, UniProt Q93YR9)
Technique: two-hybrid
Relative to: out of 4 tests
Direction: higher = firmer interaction
Construct (chain): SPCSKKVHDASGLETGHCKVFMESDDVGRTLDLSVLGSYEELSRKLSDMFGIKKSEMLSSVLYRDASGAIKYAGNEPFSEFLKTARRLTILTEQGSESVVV
Molecule | positive tests
IAA26 (Arabidopsis thaliana, UniProt Q8LAL2) | 2
ETT (Arabidopsis thaliana, UniProt O23661) | 0
ARF13 (Arabidopsis thaliana, UniProt Q9FX25) | 0
IAA27 (Arabidopsis thaliana, UniProt Q9ZSY8) | 0

Sample 4
SMILES: CC(C)CC(=O)N1CCc2nc(-c3ccc(Br)cc3)nc(N(C)Cc3ccccc3)c2C1
Technique: competition with immobilised ligand
Concentration: 0.1 µM
target | observed | remaining binding [%]
FRK (Homo sapiens, UniProt P42685) | cell-free assay | 100
STK17A (Homo sapiens, UniProt Q9UEE5) | cell-free assay | 96
LYN (Homo sapiens, UniProt P07948) | cell-free assay | 88
PIK3CA (Homo sapiens, UniProt P42336, Q546K) | cell-free assay | 97
MAP3K9 (Homo sapiens, UniProt P80192) | cell-free assay | 91
MAP3K20 (Homo sapiens, UniProt Q9NYL2) | cell-free assay | 100
CDK9 (Homo sapiens, UniProt P50750) | cell-free assay | 100
TYRO3 (Homo sapiens, UniProt Q06418) | cell-free assay | 100
Non-receptor tyrosine-protein kinase TYK2, JH1 (TYK2, Homo sapiens, UniProt P29597) | cell-free assay | 100
BMPR1A (Homo sapiens, UniProt P36894) | binding | 93

Mixed results
Molecule | tested on | technique | medium | concentration | endpoint | result
CCOC(=O)[C@@H]1CSCC(=O)N[C@@H](CC)C(=O)N(C)[C@@H](C)C(=O)N[C@@H](CC(C)C)C(=O)N2CCC[C@H]2C(=O)N(CC(C)C)CC(=O)N[C@H](CC(C)C)C(=O)N(C)[C@@H](C)C(=O)N[C@@H](CC(C)C)C(=O)N1C | – | – | hydrocarbon/water | – | logD | 1.16
medroxyprogesterone | Sarcocystis neurona | HTS | – | concentration not given | activity | inactive

For quick reference, copied from above (sample 3):
Molecule | positive tests
ETT (Arabidopsis thaliana, UniProt O23661) | 0
ARF13 (Arabidopsis thaliana, UniProt Q9FX25) | 0
IAA27 (Arabidopsis thaliana, UniProt Q9ZSY8) | 0
